Earlier results that unrelated publications cite.
Lines come from different studies, so protocols differ.
UniProt Q5VT25, sequence (whole entry, looked up): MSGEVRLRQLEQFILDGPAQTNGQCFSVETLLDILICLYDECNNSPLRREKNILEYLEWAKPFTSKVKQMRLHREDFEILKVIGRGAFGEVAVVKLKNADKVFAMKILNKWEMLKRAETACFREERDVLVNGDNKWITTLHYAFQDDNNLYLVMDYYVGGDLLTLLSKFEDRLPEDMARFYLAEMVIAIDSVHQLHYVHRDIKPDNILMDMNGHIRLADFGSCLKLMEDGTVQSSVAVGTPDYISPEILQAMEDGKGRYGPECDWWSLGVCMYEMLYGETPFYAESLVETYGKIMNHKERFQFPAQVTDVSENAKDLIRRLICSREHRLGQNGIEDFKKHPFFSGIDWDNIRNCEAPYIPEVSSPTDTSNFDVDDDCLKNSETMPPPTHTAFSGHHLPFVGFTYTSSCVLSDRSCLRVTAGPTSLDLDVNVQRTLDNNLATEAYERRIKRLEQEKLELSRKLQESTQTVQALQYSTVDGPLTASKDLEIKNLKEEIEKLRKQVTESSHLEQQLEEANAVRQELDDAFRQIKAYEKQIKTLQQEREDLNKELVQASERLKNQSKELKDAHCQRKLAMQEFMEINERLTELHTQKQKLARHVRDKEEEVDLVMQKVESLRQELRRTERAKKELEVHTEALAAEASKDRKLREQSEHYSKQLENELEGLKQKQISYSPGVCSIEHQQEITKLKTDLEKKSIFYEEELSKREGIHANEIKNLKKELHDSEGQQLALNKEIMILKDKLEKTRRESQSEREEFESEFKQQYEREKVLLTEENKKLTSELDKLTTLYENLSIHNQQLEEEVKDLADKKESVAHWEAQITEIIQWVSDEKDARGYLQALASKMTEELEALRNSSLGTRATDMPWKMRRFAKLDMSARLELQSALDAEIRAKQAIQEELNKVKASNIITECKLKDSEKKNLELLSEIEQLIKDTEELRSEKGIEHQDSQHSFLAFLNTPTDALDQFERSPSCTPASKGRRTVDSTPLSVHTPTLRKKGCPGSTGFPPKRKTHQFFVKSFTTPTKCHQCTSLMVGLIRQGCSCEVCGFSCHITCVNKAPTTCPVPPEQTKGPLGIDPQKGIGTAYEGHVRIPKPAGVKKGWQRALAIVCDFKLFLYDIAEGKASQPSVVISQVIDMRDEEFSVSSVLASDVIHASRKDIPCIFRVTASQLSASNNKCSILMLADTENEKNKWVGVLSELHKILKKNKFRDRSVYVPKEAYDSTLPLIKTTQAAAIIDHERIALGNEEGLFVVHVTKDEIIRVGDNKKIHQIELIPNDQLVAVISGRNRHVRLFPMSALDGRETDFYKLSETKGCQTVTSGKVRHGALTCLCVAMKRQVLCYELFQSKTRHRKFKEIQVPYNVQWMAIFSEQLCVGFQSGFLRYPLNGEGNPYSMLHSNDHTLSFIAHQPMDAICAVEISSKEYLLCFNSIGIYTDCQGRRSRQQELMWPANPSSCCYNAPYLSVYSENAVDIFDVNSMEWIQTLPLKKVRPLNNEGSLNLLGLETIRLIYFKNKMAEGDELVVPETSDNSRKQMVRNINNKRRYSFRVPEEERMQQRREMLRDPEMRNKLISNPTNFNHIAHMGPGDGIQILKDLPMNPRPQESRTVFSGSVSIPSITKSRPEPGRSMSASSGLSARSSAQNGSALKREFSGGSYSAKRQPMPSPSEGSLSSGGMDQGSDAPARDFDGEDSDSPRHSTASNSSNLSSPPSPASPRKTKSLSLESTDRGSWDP

COc1cc2c3c(n(CCCN4CCOCC4)c(=O)c2cc1OC)-c1cc2c(cc1C3=O)OCO2  clearance (human patients): 1.54 L/h/m²
C#C[C@]1(O)CC[C@H]2[C@@H]3CCC4=CC(=NO)CC[C@@H]4[C@H]3CC[C@@]21CC (mixture of isomers)  clearance (human; intravenous): 7.89 L/h
Nc1cc(C(F)(F)F)c(-c2nc(N3CCOCC3)nc(N3CCOCC3)n2)cn1  remaining activity (CDC42BPA (Homo sapiens, UniProt Q5VT25); enzyme activity; 10 µM; baseline: untreated): 100%
CCc1cc(/C(C)=N/OCc2ccc(C3CCCCC3)c(C(F)(F)F)c2)ccc1CN1CC(C(=O)O)C1  clearance (population PK; human, CYP2C9*2/*3): 1.72 L/h
COCCc1ccc(OCC(O)CNC(C)C)cc1 (stereo not shown)  clearance (human): 275 L/h
O=C(O)Cc1ccccc1Nc1c(Cl)cccc1Cl  clearance (human): 3.6 mL/min/kg
Cn1c(=O)c2c(ncn2C)n(C)c1=O  clearance (human): 5.3 L/h
Cc1ccc([C@@H]2O[C@H](CO)[C@@H](O)[C@H](O)[C@H]2O)cc1Cc1ccc(-c2ccc(F)cc2)s1  clearance (human, preserved kidney function; 300 mg, steady state, mean): 16.4 L/h
CN(C)CCCN1c2ccccc2Sc2ccc(Cl)cc21  clearance (human): 12.3 mL/min/kg
CN/C(=N/CCSCc1nc[nH]c1C)NC#N  clearance (human): 5.26 mL/min/kg

A few entries again:
C#C[C@]1(O)CC[C@H]2[C@@H]3CCC4=CC(=NO)CC[C@@H]4[C@H]3CC[C@@]21CC (mixture of isomers)  clearance (human; intravenous): 7.89 L/h
